# Experimental data collected from several papers.
# Parts stem from different laboratories: compare values within a part only.

# Set 1 — technique: protein-binding microarray; molecule type: double-stranded DNA, one strand shown; medium: in vitro; concentration: 250 nM; setting: 60-bp whole probe; with: salmon DNA 0.4 mg/ml; reference: random background probes; reading: higher = stronger binding; shared flanks, not repeated: GCCTAGCAC … GTCTTGATTCGCTTGACGCTGCTG
# Target: Interferon regulatory factor 7, full length, phosphomimetic (IRF7, Homo sapiens, UniProt Q92985, residues 1-503, S101K/S471D/S472D/S475D/S476D/S477D/S483D/S484D/S487D)
# UniProt Q92985, sequence (whole entry, unmodified, looked up): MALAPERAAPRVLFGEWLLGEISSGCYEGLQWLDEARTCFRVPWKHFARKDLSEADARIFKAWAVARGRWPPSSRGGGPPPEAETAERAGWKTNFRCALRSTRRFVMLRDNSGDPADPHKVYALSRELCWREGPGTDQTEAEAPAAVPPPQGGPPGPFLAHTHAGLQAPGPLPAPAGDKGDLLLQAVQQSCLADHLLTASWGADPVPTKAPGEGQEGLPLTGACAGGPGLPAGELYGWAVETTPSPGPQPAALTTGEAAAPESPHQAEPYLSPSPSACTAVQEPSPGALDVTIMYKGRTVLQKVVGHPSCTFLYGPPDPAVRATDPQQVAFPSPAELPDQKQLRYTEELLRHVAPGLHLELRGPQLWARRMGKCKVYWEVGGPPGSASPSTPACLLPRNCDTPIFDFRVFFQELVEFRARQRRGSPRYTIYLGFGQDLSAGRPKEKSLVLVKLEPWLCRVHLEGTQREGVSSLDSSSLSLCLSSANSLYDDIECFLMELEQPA
Oligonucleotide,log fluorescence [z-score]
TCAGAGATTTTTCTCAAACTGTGCTAG,-0.423
GACGGTATCGGGTATTGGGACGTGCTA,0.011
GACCGACTGGGGTATCGGGACGTGCTA,-0.235
GTTGTTTTAAATTCTAATTAGTGCTAG,0.798
GACGGTCTCGGAGTGGGGACGTGCTAG,-0.295

# Set 2 — technique: RNA Bind-n-Seq; molecule type: RNA; medium: in vitro; concentration: 365 nM; reference: no-protein control; reading: higher = stronger binding
# Target: RNA binding protein fox-1 homolog 2, RRM domain, GST-SBP tag (RBFOX2, Homo sapiens, UniProt O43251-10, residues 100-194)
# Setting: natural RNA segment, single round, ends assumed
# Shared flanks, not repeated: GGGAGUUCUACAGUCCGACGAUC … UGGAAUUCUCGGGUGCCAA
Oligonucleotide,RBNS enrichment (R)
ACCUGUGUAUAGAAGAAAGAAAGGGUCAGUGAUCGAGAAUCAGACACUCUCGUUCAGGAGGAGGCUUCUCGCCUGAAACAAUUGCACCCAACACUUUUGGGGAAGUCUCA,0.527
AGUGUCCUUACACUACACUAUCCUGAGCUGGUUGGGGUGGGUAGAAGAAGGCAAGGACUGCCUGAGAGGCUGCGUUGACCCUACUGAUGUGGGUCUUGGGAUGGGCUGGA,0.613
CCCAGCCUGUAAUUCUAAGUUCAACAAAACAGUUGUCAACAAAAGUGACUGAGGCUUCCACCAGAGUGCCAGGGCUCUGUGCAGACUCAGAAUCCCUGUUCCCUAUGUCA,0.742
GCUUGAUUCAAAACCAAGGAAACCAGAACCAUUGAUCUUCUAUCUCUGUGAUUGCUAAGCAGUAGCCAAAUAACCUUCCUUUGCUGUAUCUGCGUCCCUUCUGAAGGCAC,0.422
CCAUGGGGUGUCACACCCCACACCUCAUGCUCGAGAGGCCCGACCCAGGGGCAGAAAACGGGGCUUGAAGAGUGUGUCCCCAUCCCACCCCCAGCCUCUGCCUUCUUGGC,0.559
CAUAUAGAUUAAACAAAAUUUUUAUCUUUUUUCAAGAAUAUAGCUGGCUAUCUUUAAGAAAGAUGAUAUAUCCUAGUUUUGAAAGUAAUUUUCUUUUUUCUUUCUAGCAU,0.913
ACGGGCCCAAUAUUUUACUAACCCACUCUGUAGGUUGUCAGUGUUCCAUUUUGAAAGUGUCCCCGUGGUUGCACACUUCAGAGGACAGGGACUCUGUGUGUCUAAGAAGG,0.932

# Set 3 — technique: RNA Bind-n-Seq; molecule type: RNA; medium: in vitro; concentration: 20 nM; setting: 6-mer, flanks averaged, single round; with: 150 mM KCl; reference: input library; reading: higher = stronger binding
# Target: TAR DNA-binding protein 43, full length, His tag (TARDBP, Homo sapiens, UniProt Q13148, residues 1-414)
Oligonucleotide,6-mer enrichment (R)
GCUUUG,0.811
CGGCCC,0.811
ACCUCG,0.629
GGGGAG,8.41
AGGCCU,0.804
UCUCCC,0.617
UCUGUG,0.852
ACUGGU,0.79

# Single results of other studies
Molecule,target,assay,test system,conditions,how to read,measurement,result
"PhoQ, residues 284 288 289 292 302 303 ASSHFY","PhoP, residues 12 14 15 18 19 SPWRL (Escherichia coli, UniProt P23836)","Sort-seq, item: YFP reporter",E. coli,"PhoQ-PhoP variant library, with: 10 µM Mg2+","reference: high Mg2+ state, higher = stronger signaling",fold induction,1.43

# A few entries again (set 2):
Oligonucleotide,RBNS enrichment (R)
AGUGUCCUUACACUACACUAUCCUGAGCUGGUUGGGGUGGGUAGAAGAAGGCAAGGACUGCCUGAGAGGCUGCGUUGACCCUACUGAUGUGGGUCUUGGGAUGGGCUGGA,0.613
